# Measurements gathered from unrelated publications.
# A part holds a random share of what one study measured. Positions count from the first letter of the parent shown.

# Series 1 — method: DHFR PCA, deep sequencing; sample: yeast; added: (+)-ABA 0.11 µM; relative to: wild-type fitted maximum; direction: higher = stronger binding
# Target: ABI1, truncated, D143A, DHFR fusion (Arabidopsis thaliana)
# Notes: methotrexate growth selection, single substitutions
# Starting sequence: PYL1, truncated, DHFR fusion (Arabidopsis thaliana); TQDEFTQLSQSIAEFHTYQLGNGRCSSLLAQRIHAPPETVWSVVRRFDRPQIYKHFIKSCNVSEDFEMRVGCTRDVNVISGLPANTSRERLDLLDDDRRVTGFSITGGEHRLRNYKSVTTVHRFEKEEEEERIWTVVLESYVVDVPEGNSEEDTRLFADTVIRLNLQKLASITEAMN; partner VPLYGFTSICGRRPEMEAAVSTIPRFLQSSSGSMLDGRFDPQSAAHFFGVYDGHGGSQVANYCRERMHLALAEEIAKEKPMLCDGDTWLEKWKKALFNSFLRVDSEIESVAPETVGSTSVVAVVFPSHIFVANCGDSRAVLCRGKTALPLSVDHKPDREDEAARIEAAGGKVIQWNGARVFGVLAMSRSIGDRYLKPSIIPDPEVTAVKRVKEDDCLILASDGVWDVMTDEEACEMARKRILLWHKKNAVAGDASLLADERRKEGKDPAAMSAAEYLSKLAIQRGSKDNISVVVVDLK
Change,relative binding score [%]
E129A,47
C60M,4.58
G71Y,-1.59
S150M,0.858
G21S,36.7
D144N,0.0287
S150W,-8.14
N22T,40
V70G,2.17
L164G,6.95
E127Y,24.7
G148A,-1.27
G23K,20.7
L138Q,-4.58
R32A,20.3
T73L,21.2
R74A,1.1
E130K,39.9
Y18V,2.91
P36K,10.9
Y53V,-4.62
I105S,-1.26
E128P,14.6
L138N,-3.14
L166G,5.61

# Series 2 — target: UBE2G2 UBC core domain (UniProt P60604); method: yeast two-hybrid; sample: yeast; notes: mostly zero background; relative to: not given; direction: higher = stronger interaction
# B1: TRIM48 RING domain (UniProt Q8IWZ4); chain ISQVFQRELTCPICMNYFIDPVTIDCGHSFCRPCFYLNWQDIPILTQCFECIKTIQQRNLKT
# B2: DTX1 RING domain (UniProt Q86Y01); chain QKVKNPPDEDCTICMERLVTASGYEGVLRHKGVRPELVGRLGRCGHMYHLLCLVAMYSNGNKDGSLQCPTCKAIYGEKTGTQ
# B3: RNF24 RING domain (UniProt Q9Y225); chain KVKELNLHELCAVCLEDFKPRDELGICPCKHAFHRKCLIKWLEVRKVCPLCNMPVLQLAQLH
# B4: RNF181 RING domain (UniProt Q9P0P0); chain VIRGSQAELKCPVCLLEFEEEETAIEMPCHHLFHSSCILPWLSKTNSCPLCRYELPTDDDTY
# B5: PRKN RING domain (UniProt O60260); chain LIATNSRNITCITCTDVRSPVLVFQCNSRHVICLDCFHLYCVTRLNDRQFVHDPQLGYSLPCVAGCPNSLIKELHH
# B6: Ltn1 RING domain (UniProt Q6A009); chain VDKRFEGVEDCMICFSVIHGFNYSLPKKACRTCKKKFHSACLYKWFTSSNKSTCPLCRETFF
# B7: RNF135 RING domain (UniProt Q8IUD6); chain PVWLAEDDLGCIICQGLLDWPATLPCGHSFCRHCLEALWGARDARRWACPTCRQGAAQQPHLR
# B8: TRIM22 RING domain (UniProt Q8IYM9); chain KEVKMSPQEGQKRDVCEHHGKKLQIFCKEDGKVICWVCELSQEHQGHQTFRINEVVKECQEK
# Target sequence (chain): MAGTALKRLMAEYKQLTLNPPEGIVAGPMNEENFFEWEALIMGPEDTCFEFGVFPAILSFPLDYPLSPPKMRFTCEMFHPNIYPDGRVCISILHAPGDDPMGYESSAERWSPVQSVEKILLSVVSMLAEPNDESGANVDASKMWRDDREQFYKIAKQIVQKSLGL
Molecule,lacZ reporter activity
B1 (TRIM48 RING domain),0
B2 (DTX1 RING domain),0
B3 (RNF24 RING domain),0
NTAPSLTVPECAICLQTCVHPVSLPCKHVFCYLCVKGASWLGKRCALCRQEIPEDFLDK (RNF146 RING domain (UniProt Q9NTX7)),2420
MDDQGCPRCKTTKYRNPSLKLMVNVCGHTLCESCVDLLFVRGAGNCPECGTPLRKSNFRV (MNAT1 RING domain (UniProt P51948)),0
B4 (RNF181 RING domain),9310
KITELNPHLMCVLCGGYFIDATTIIECLHSFCKTCIVRYLETSKYCPICDVQVHKTRPLL (BMI1 RING domain (UniProt P35226)),0
QLRRLQEERTCKVCLDRAVSIVFVPCGHLVCAECAPGLQLCPICRAPVRSRVRTF (BIRC7 RING domain (UniProt Q96CA5)),8250
KEQLEKHNDICAICYQDMKSAVITPCSHFFHAGCLKKWLYVQETCPLCHCHLKNSSQLP (RNF145 RING domain (UniProt Q96MT1)),0
B5 (PRKN RING domain),0
ALDRLEKLLRCSRCTNILREPVCLGGCEHIFCSNCVSDCIGTGCPVCYTPAWIQDLKI (BARD1 RING domain (UniProt Q99728)),0
B6 (Ltn1 RING domain),0
B7 (RNF135 RING domain),0
KLWDINAHITCRLCSGYLIDATTVTECLHTFCRSCLVKYLEENNTCPTCRIVIHQSHPLQ (PCGF3 RING domain (UniProt Q3KNV8)),0
B8 (TRIM22 RING domain),0

# Series 3 — target: JUN, bZIP domain (human); method: DHFR protein complementation; sample: yeast; relative to: wild-type JUN-FOS pair; direction: higher = stronger binding
# Notes: single substitutions, most at no-binding floor
# Starting sequence: JUN, bZIP domain (human); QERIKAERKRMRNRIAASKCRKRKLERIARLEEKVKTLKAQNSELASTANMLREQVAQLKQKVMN; partner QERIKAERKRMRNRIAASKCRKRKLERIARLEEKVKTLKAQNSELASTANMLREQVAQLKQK
Change,binding fitness [natural log]
M51E,-0.142
E33Q,-0.34
Q58R,-0.417
E44G,-0.808
R30T,-0.0804
K36Q,-0.323
A57K,-0.137
K39W,-0.888
A40Q,0.0476
L31W,-1.14
R53G,-0.817
N42K,-0.721
K34E,0.023
S43H,-0.17
Q41T,-0.463
S43R,-0.0675
A57S,-0.284
A49V,0.149
L52M,-0.967
S43C,-0.284

# Series 4 — method: protein-binding microarray; molecule type: double-stranded DNA, one strand shown; sample: in vitro; concentration: 250 nM; notes: 60-bp whole probe; added: salmon DNA 0.4 mg/ml; relative to: random background probes; direction: higher = stronger binding; all sequences stand within: GCCTAGCAC … GTCTTGATTCGCTTGACGCTGCTG
# Target: Interferon regulatory factor 7, full length, phosphomimetic (IRF7, Homo sapiens, UniProt Q92985, residues 1-503, S101K/S471D/S472D/S475D/S476D/S477D/S483D/S484D/S487D)
# UniProt Q92985, sequence (whole entry, unmodified, looked up): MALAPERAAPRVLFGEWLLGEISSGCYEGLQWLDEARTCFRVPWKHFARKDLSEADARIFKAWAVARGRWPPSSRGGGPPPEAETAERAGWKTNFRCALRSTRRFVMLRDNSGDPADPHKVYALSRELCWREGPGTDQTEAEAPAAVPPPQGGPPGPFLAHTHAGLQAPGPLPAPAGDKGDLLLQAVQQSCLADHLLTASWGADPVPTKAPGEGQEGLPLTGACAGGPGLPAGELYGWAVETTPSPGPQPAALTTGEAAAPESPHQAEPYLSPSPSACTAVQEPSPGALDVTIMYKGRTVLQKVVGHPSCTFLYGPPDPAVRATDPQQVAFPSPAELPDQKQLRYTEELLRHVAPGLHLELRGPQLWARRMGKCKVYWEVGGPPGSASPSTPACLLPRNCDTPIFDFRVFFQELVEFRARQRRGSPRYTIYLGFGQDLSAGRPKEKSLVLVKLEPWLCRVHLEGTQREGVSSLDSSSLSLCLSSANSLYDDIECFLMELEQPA
Strand,log fluorescence
GACGGACTGGACTGTCGGGACGTGCTA,-0.848 z-score
GACGCACTGGGGTATCGAGACGTGCTA,-0.469 z-score
GACGGACTTGACTATCGGGACGTGCTA,-0.5 z-score
AGTGTTTGCCCTATTTAAGAGTGCTAG,1.15 z-score
GACGGTATCGGCTTTCGGGACGTGCTA,0.24 z-score
CCACTTTCCATTTCTGTTTTTGTGCTA,4.33 z-score
TTAGATTTCGGGACTGGAGTAGTGCTA,0.222 z-score
GACGATTACAGTATCGAGACGTGCTAG,-0.0375 z-score
GGCGGTTTCCTTTCCCTGACGTGCTAG,4.55 z-score
ACAAATGGCCAACAAACATTGTGCTAG,-0.116 z-score
TCATTTTTTTCCCTGAAACTGTGCTAG,1.08 z-score
TCACCTTTACTTTCTTTACTGTGCTAG,0.949 z-score
ACTTCTCCATTTTTCTAGTCGTGCTAG,2.04 z-score
AGAGTCACCCATCTCAGCAAGTGCTAG,-0.459 z-score
GACGGTCTCCTACTGCTGAAGTGCTAG,0.228 z-score
TTAGAACTGAGTATCGATGAGTGCTAG,-0.167 z-score
GCCGGTTTCGACACTGGGGACGTGCTA,4.66 z-score
TGGTTTTTACTTTCTGAATGGTGCTAG,2.61 z-score
GTAGGTCTCCTACTGCTTTAGTGCTAG,-0.524 z-score
GACGGTTTCGGTTCCGGGTCGTGCTAG,12.8 z-score
TTAGAACTGAGACTGGTTTAGTGCTAG,-0.0434 z-score
GACGGACTGTACTTTCGGGACGTGCTA,-0.331 z-score
TCAGCTTTCCTTCTTGAACTGTGCTAG,0.707 z-score
TCAGCTCCCTTTCTCTCACTGTGCTAG,0.307 z-score
TTAGGACAGCTTCTCCTTTAGTGCTAG,0.234 z-score

# Series 5 — target: CCND1, cyclin fold, Cln2 fusion (human); method: yeast growth competition, sequencing; sample: yeast; notes: strong parent motif; relative to: not given; direction: higher = stronger binding
# Starting sequence: E2F1 docking peptide (human); PPVKRRLDFETDH
Change,normalised enrichment score
PPRKRRLDFETDH [V3R],0.00841
PPVKRRLDFETIH [D12I],2.99
PPNKRRLDFETDH [V3N],-0.148
PPVKRRLDFETQH [D12Q],2.82
PPVWRRLDFETDH [K4W],1.2
PPVCRRLDFETDH [K4C],4.77
PPVKRRLDFETMH [D12M],2.93
PPVVRRLDFETDH [K4V],2.66
PPVKRTLDFETDH [R6T],1.15
PMVKRRLDFETDH [P2M],1.82
PPVKRRLDFEDDH [T11D],3.47
PPVKRRIDFETDH [L7I],3.15
PPVKRRLDFEHDH [T11H],2.79
PPVKRRHDFETDH [L7H],-0.136
PGVKRRLDFETDH [P2G],2.64
PPVKKRLDFETDH [R5K],0.77
PPVKRRLDFGTDH [E10G],3.26
PPVKRRLAFETDH [D8A],1.57
PPVPRRLDFETDH [K4P],1.17
PPVKRRLDFTTDH [E10T],2.47
PPVKRRLDFELDH [T11L],2.81
PPVKRMLDFETDH [R6M],1.33

# Some of these lines once more (series 5):
Change,normalised enrichment score
PPVKRRLDFETQH [D12Q],2.82
PPVWRRLDFETDH [K4W],1.2
PPVCRRLDFETDH [K4C],4.77
PPVKRRLDFETMH [D12M],2.93
PPVVRRLDFETDH [K4V],2.66
PPVKRTLDFETDH [R6T],1.15
PMVKRRLDFETDH [P2M],1.82
PPVKRRLDFEDDH [T11D],3.47
PPVKRRIDFETDH [L7I],3.15
PPVKRRLDFEHDH [T11H],2.79
PPVKRRHDFETDH [L7H],-0.136
